Measurements pooled from the literature.
Protocols differ between the studies behind these lines. Several values in a cell are separate wells, animals, samples, runs or records. Numbers after ± are the reported error.
B1: PLRG1 (human); sequence looked up; chain MVEEVQKHSVHTLVFRSLKRTHDMFVADNGKPVPLDEESHKRKMAIKLRNEYGPVLHMPTSKENLKEKGPQNATDSYVHKQYPANQGQEVEYFVAGTHPYPPGPGVALTADTKIQRMPSESAAQSLAVALPLQTKADANRTAPSGSEYRHPGASDRPQPTAMNSIVMETGNTKNSALMAKKAPTMPKPQWHPPWKLYRVISGHLGWVRCIAVEPGNQWFVTGSADRTIKIWDLASGKLKLSLTGHISTVRGVIVSTRSPYLFSCGEDKQVKCWDLEYNKVIRHYHGHLSAVYGLDLHPTIDVLVTCSRDSTARIWDVRTKASVHTLSGHTNAVATVRCQAAEPQIITGSHDTTIRLWDLVAGKTRVTLTNHKKSVRAVVLHPRHYTFASGSPDNIKQWKFPDGSFIQNLSGHNAIINTLTVNSDGVLVSGADNGTMHLWDWRTGYNFQRVHAAVQPGSLDSESGIFACAFDQSESRLLTAEADKTIKVYREDDTATEETHPVSWKPEIIKRKRF
B2: human 4F2hc (SLC3A2); sequence looked up; chain MELQPPEASIAVVSIPRQLPGSHSEAGVQGLSAGDDSELGSHCVAQTGLELLASGDPLPSASQNAEMIETGSDCVTQAGLQLLASSDPPALASKNAEVTGTMSQDTEVDMKEVELNELEPEKQPMNAASGAAMSLAGAEKNGLVKIKVAEDEAEAAAAAKFTGLSKEELLKVAGSPGWVRTRWALLLLFWLGWLGMLAGAVVIIVRAPRCRELPAQKWWHTGALYRIGDLQAFQGHGAGNLAGLKGRLDYLSSLKVKGLVLGPIHKNQKDDVAQTDLLQIDPNFGSKEDFDSLLQSAKKKSIRVILDLTPNYRGENSWFSTQVDTVATKVKDALEFWLQAGVDGFQVRDIENLKDASSFLAEWQNITKGFSEDRLLIAGTNSSDLQQILSLLESNKDLLLTSSYLSDSGSTGEHTKSLVTQYLNATGNRWCSWSLSQARLLTSFLPAQLLRLYQLMLFTLPGTPVFSYGDEIGLDAAALPGQPMEAPVMLWDESSFPDIPGAVSANMTVKGQSEDPGSLLSLFRRLSDQRSKERSLLHGDFHAFSAGPGLFSYIRHWDQNERFLVVLNFGDVGLSAGLQASDLPASASLPAKADLLLSTQPGREEGSPLELERLKLEPHEGLLLRFPYAA
Chain of UniProt Q12809 (whole entry, looked up): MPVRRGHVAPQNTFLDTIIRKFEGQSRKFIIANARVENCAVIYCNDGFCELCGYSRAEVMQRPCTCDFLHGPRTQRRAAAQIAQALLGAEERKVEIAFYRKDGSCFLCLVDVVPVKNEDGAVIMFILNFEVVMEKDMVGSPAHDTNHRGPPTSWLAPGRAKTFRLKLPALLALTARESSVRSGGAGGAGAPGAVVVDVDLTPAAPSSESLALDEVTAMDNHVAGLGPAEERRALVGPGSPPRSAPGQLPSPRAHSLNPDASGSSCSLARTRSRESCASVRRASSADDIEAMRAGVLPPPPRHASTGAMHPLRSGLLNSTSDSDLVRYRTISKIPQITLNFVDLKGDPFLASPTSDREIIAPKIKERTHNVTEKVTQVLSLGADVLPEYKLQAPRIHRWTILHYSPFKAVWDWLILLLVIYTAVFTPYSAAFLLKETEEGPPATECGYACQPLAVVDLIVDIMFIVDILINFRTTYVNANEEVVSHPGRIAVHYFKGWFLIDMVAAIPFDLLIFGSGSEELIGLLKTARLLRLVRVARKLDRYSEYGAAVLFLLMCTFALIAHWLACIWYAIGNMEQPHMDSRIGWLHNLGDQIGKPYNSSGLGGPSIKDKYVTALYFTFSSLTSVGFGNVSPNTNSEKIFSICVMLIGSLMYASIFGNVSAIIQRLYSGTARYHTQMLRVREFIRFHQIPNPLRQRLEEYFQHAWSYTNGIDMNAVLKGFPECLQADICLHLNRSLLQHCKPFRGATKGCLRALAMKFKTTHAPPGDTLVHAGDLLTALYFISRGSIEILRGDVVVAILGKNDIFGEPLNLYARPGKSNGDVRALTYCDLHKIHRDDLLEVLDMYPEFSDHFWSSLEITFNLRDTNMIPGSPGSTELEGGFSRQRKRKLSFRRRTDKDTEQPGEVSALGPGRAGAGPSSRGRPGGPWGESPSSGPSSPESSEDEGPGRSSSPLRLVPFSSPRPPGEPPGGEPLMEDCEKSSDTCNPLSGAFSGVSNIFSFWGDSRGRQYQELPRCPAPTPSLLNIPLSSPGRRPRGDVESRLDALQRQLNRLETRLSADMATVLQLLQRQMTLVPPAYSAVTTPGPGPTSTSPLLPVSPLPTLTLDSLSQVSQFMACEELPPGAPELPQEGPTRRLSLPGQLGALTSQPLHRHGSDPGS
Chain of UniProt Q9Y6L6 (whole entry, looked up): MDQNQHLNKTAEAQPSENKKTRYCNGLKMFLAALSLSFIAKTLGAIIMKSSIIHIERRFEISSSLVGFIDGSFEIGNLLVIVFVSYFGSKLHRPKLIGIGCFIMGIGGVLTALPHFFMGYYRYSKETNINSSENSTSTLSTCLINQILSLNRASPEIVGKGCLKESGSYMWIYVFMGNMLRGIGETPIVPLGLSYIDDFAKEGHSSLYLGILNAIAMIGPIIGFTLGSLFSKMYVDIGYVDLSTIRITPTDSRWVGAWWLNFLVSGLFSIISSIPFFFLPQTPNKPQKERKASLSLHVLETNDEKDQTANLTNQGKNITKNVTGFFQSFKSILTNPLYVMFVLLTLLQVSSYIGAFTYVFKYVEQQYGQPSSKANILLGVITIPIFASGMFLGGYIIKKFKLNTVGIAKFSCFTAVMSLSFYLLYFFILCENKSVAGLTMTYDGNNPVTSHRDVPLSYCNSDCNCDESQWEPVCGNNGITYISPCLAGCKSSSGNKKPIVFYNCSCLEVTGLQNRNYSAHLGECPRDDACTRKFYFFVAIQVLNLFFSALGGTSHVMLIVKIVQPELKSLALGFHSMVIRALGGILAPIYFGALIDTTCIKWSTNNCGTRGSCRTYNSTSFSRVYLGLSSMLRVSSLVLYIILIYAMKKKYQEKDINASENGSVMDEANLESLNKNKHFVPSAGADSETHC
Chain of UniProt P00760 (whole entry, looked up): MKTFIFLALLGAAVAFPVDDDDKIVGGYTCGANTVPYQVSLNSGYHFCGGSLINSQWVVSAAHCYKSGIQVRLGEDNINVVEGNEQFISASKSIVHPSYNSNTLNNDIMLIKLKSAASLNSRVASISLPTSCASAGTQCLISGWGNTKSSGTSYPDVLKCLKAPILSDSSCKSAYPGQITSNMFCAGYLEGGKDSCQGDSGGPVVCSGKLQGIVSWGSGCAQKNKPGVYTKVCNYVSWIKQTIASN

`caspofungin` has a bilirubin of 20.3 µmol/L (adult ICU patients, mITT, serum; dose not given, Baseline).
The concentration of `Polymyxin B` is reported as 210 ng/mL and 480 ng/mL and 50 ng/mL and 310 ng/mL and 200 ng/mL (LC-MS; Sprague-Dawley rat, cerebellum; intracerebroventricular, 0.75 mg/kg, 1 h).
With `Teicoplanin` the recovery was 107% (stock solution; 5 months, -40 °C).
For `Ivermectin`, the TC50 was 1600 nM (Vero; Alamar Blue; 96 h).
`B1 (PLRG1)`: “log2 fold change” -0.74 (CYB5R4 knockout human cells; PP6 interaction, 3xFLAG-PP6C IP-MS; concentration not given; relative to: CYB5R4 KO over parental).
`coproporphyrin I` has an IC50 of 565 ± 138 nM (Solute carrier organic anion transporter family member 1B1 (SLCO1B1, Homo sapiens, UniProt Q9Y6L6); transporter uptake, inhibitor; together with: GCDCA-G).
For `Pexiganan`, “incubation time to sliding time decrease” read 5 to 10 min (Serine protease 1 (PRSS1, Bos taurus, UniProt P00760); LC-SLIPS; 0.1 mg/mL, 37 °C, bovine trypsin, together with: 25000 ng/mL trypsin).
The tissue uptake of `FNA / CGLSGLGVA-NH2 ([18F]FNA-labelled, C-amide)` is reported as 0.74 %ID/g (ex vivo gamma counting; peptide, glioblastoma mouse model, blood; 60 min post injection, together with: 500-fold excess CooP blocking).
For `CTOP`, the retention time was 3.99 min (RP-HPLC; HALO Peptide ES-C18 column; 25 µM, formic acid/acetonitrile, 10 min gradient).
`Triton X-100` gave an LDH release of less than 10% (HeLa; concentration not given, 4 h; relative to: positive control).
The half-activation voltage of `methyl-β-cyclodextrin` is reported as -30 ± 2.2 mV (Voltage-gated inwardly rectifying potassium channel KCNH2 (KCNH2, Homo sapiens, UniProt Q12809); steady-state activation, whole-cell patch clamp; concentration not given).
Under “log2 fold change”, `B2 (human 4F2hc)` is recorded as -0.53 (PP6C (human); co-immunoprecipitation, IP-MS; CYB5R4 knockout cells; concentration not given; relative to: CYB5R4 knockout over parental).
